Experimental data from different studies.
Lines come from different studies, so protocols differ. Numbers after ± are the reported error.
U2AF2: U2AF2 148-342 (Homo sapiens, UniProt P26368)
UniProt P26368, sequence (whole entry, looked up): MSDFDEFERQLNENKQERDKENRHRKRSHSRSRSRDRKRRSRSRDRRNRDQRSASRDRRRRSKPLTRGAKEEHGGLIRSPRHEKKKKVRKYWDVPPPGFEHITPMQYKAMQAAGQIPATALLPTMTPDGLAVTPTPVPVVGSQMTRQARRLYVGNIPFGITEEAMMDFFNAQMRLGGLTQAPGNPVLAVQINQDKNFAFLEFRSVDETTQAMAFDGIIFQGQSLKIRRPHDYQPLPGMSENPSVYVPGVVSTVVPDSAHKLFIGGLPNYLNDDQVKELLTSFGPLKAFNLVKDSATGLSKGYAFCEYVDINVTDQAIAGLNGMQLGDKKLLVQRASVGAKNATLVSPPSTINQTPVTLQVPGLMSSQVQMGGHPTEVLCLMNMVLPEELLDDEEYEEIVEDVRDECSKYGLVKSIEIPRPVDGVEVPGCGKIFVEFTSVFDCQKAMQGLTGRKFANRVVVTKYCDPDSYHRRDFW
PHO4: PHO4 1-312 (Saccharomyces cerevisiae, UniProt P07270)
UniProt P07270, sequence (whole entry, looked up): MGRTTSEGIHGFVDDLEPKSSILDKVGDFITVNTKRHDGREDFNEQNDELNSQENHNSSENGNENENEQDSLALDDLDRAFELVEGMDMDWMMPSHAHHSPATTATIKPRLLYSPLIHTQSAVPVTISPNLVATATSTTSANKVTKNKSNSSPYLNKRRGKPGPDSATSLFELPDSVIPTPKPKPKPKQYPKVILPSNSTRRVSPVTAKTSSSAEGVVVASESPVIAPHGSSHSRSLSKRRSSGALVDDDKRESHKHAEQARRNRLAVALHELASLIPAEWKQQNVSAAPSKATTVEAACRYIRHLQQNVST
ulaR full length assumed: ulaR full length assumed (Escherichia coli, UniProt P0A9W0)
UniProt P0A9W0, sequence (whole entry, looked up): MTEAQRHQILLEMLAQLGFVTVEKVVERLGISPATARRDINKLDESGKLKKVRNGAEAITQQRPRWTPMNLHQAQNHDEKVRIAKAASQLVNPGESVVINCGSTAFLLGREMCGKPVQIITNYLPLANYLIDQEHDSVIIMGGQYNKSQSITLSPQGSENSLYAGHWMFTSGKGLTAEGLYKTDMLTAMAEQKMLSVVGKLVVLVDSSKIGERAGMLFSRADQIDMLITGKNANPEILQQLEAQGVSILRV
SUA7 full length assumed: SUA7 full length assumed (Saccharomyces cerevisiae, UniProt P29055)
UniProt P29055, sequence (whole entry, looked up): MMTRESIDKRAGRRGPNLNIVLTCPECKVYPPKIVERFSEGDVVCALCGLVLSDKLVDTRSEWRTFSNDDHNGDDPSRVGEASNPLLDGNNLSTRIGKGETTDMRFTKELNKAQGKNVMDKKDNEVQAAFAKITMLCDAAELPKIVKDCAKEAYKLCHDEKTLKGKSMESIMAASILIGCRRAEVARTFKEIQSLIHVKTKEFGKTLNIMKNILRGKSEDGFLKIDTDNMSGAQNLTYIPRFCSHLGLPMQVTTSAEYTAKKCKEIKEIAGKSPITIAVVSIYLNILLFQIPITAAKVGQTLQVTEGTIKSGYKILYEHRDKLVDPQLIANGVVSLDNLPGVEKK
CBF1: CBF1 1-351 (Saccharomyces cerevisiae, UniProt P17106)
UniProt P17106, sequence (whole entry, looked up): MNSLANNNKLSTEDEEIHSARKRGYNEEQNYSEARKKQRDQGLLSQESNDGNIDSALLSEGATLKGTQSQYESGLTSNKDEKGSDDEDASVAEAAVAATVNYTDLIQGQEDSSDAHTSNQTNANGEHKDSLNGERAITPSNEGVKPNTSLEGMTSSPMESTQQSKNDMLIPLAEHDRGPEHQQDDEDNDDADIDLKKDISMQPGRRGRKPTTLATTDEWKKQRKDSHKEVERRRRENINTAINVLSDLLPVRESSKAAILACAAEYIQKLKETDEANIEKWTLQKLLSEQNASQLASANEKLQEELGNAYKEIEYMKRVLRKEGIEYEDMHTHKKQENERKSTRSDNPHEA
nac full length assumed: nac full length assumed (Escherichia coli, UniProt Q47005)
UniProt Q47005, sequence (whole entry, looked up): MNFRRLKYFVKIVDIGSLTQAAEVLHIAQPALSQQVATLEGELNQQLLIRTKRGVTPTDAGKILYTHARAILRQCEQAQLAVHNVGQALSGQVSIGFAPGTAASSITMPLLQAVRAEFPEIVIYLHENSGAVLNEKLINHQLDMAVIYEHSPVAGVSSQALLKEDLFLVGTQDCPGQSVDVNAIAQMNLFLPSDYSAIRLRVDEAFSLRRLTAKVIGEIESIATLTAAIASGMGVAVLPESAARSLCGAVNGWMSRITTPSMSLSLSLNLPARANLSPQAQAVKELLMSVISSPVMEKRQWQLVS
SPT15 full length assumed: SPT15 full length assumed (Saccharomyces cerevisiae, UniProt P13393)
UniProt P13393, sequence (whole entry, looked up): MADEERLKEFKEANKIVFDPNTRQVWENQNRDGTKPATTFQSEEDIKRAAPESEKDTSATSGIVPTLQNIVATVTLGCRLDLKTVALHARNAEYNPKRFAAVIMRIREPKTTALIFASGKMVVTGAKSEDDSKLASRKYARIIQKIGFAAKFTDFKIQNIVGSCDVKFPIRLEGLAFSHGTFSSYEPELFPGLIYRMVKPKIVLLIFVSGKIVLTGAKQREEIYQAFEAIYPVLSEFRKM
MECP2: MECP2 1-486 (Homo sapiens, UniProt P51608)
TGM2: TGM2 2-687 (Homo sapiens, UniProt P21980)
UniProt P21980, sequence (whole entry, looked up): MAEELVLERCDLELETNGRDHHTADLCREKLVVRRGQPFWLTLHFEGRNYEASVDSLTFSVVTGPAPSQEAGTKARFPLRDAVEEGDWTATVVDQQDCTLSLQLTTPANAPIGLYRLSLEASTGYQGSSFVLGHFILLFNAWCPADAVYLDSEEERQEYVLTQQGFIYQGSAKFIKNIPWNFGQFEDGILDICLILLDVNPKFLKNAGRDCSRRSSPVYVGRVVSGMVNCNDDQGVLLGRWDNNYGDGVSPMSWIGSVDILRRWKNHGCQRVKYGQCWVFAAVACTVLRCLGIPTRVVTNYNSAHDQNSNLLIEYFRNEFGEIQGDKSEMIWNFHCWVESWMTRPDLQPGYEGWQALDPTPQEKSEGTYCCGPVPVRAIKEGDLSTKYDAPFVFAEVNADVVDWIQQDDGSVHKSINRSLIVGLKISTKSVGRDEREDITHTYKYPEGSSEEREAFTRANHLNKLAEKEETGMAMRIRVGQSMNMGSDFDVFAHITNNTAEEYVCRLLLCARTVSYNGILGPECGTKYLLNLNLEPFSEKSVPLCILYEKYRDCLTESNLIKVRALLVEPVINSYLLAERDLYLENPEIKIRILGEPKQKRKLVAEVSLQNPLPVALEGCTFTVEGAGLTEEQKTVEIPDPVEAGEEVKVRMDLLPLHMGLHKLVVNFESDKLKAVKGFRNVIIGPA
T1: MUTYH 1-535 (Homo sapiens); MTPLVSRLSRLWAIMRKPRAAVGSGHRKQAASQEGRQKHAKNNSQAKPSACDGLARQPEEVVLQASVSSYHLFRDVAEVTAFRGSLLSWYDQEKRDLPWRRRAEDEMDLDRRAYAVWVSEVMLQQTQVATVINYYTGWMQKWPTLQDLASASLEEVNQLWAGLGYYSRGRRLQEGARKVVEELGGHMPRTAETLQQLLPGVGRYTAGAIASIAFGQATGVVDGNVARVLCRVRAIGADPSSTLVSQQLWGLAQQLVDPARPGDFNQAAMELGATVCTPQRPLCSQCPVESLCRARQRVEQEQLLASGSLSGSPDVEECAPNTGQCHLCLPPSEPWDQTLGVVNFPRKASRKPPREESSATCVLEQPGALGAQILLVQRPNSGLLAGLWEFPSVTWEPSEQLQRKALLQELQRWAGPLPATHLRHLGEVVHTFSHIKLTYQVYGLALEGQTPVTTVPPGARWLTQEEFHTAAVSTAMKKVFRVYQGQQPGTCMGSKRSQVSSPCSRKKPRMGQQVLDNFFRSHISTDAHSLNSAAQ
T2: TOA1/TOA2 1-286; 1-122 (Saccharomyces cerevisiae); chain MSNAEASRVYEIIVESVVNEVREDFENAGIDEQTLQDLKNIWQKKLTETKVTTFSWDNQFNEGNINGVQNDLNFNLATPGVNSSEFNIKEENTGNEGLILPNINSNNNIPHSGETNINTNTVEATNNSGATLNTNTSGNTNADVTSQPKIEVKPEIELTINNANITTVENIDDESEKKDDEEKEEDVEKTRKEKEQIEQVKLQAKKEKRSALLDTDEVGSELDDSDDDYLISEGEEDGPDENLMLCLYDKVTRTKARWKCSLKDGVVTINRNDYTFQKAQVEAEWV; chain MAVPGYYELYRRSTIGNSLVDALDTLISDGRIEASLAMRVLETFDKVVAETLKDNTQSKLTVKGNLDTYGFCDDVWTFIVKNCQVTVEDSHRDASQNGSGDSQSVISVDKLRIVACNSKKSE
UniProt P07676, sequence (whole entry, unmodified, looked up): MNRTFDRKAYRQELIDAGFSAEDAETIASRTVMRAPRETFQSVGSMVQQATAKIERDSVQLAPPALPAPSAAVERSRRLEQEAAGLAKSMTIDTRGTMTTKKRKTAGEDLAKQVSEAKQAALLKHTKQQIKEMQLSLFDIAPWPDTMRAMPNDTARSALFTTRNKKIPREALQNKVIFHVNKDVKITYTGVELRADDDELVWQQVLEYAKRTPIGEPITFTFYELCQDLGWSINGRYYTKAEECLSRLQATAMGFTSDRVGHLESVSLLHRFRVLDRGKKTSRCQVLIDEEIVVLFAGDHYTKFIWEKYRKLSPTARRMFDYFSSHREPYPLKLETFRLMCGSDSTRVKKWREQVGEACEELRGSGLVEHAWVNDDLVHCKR
UniProt Q9C0B1, sequence (whole entry, looked up): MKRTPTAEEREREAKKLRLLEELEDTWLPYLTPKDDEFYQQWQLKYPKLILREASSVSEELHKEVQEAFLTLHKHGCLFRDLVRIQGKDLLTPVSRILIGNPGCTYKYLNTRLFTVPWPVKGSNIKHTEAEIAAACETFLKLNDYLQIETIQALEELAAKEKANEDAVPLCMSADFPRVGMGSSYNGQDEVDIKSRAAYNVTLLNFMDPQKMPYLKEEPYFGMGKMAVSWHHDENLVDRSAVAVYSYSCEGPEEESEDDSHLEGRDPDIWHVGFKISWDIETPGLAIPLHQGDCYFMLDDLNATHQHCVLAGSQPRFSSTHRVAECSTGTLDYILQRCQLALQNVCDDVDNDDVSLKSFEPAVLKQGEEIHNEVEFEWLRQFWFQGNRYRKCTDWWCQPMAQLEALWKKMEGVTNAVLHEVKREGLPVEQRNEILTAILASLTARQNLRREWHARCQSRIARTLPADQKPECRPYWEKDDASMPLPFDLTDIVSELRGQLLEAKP
UniProt Q9H165, sequence (whole entry, looked up): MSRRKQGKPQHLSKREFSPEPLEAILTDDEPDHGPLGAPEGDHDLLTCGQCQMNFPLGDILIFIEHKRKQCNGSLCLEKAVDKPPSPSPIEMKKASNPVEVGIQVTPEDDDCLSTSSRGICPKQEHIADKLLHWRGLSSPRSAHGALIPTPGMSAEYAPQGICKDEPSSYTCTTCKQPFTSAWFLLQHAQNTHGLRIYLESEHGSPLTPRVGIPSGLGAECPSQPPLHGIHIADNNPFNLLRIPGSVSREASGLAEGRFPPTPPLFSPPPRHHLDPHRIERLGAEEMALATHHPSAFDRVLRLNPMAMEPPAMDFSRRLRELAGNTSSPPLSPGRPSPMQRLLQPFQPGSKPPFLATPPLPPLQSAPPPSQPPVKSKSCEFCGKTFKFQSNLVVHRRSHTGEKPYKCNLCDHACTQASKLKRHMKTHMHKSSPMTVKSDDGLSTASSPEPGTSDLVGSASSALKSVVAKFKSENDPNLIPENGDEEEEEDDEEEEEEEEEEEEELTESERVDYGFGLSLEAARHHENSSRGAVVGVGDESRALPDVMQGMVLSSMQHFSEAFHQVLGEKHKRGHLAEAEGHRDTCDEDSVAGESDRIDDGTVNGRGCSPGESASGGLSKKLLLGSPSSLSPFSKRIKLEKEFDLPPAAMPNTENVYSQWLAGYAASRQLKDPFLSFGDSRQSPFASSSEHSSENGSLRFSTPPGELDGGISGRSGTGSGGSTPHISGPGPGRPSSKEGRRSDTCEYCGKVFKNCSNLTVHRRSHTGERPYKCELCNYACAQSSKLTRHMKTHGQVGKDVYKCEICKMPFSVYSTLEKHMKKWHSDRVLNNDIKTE
UniProt P0ACL9, sequence (whole entry, looked up): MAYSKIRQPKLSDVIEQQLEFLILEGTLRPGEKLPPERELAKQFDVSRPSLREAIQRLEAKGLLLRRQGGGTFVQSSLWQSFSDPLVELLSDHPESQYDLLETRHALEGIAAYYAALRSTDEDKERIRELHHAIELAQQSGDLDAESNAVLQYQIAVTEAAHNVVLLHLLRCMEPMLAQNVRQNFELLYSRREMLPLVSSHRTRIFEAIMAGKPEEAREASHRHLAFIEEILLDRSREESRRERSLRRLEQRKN

GUCUUGCUC (ssRNA)  Kd (U2AF2; sequencing of bound RNA; RNA; motif only): 900 nM
DNA TGAGGATGTATATATCTGAUGCGCCGGTGGAGC / RNA GCUCCACCGGCGCGUACGAUAUAUACAUCCUCA (DNA:RNA hybrid; blunt, G-U mispair)  Kd (TDG 1-410 (Homo sapiens, UniProt Q13569); EMSA; DNA-RNA hybrid): 63 nM
CAATACACTGTTATCAGACACACGTGTCGACCTACTCGTTCGGTTATCCGGCGGTATGAC (dsDNA)  Kd (PHO4; MITOMI; double-stranded DNA, one strand shown; not purified): 121 ± 3 nM
GCAGCCCTGGTTAAAAACAAGGTTTATAAATATTGGTTTAAAAGCAGGTTAAAAGACAGGTTAGCGGTGG (ssDNA)  Kd (trfA 98-382 G254D/S267L/R347E (Escherichia coli, UniProt P07676); SPR; single-stranded DNA): 77 nM
AUUUUGGCU (ssRNA)  Kd (U2AF2; sequencing of bound RNA; RNA; motif only): 1440 nM
TTCAATGCACTATATTAGTGCAACAAACCTGGCGTGCACCATGATGATCATTCCATCAGGT (dsDNA)  Kd (glnG full length assumed (Escherichia coli, UniProt P0AFB8); BLI; double-stranded DNA, one strand shown): 2.79 nM
AAAUGAGGCGCUGCAUGUGGCAGUCUGCCUUUCUUU (structured RNA)  Kd (LARP7 1-204 (Homo sapiens, UniProt Q4G0J3); FRET; folded RNA): 33 ± 1 nM
GAUAAAGAUCAUGACAUCGACUACAAGGACGACGACGACAAGGUUGUGGAGCUGAUCGAGAAGCACCACCACCACCACCACAAAGUGGUGAUGAACUAA (RNA; predicted 2-5 helices)  Kd (FMR1 fragment (Homo sapiens); fluorescence anisotropy; folded RNA; added: tRNA competitor): 11000 ± 6000 nM
CAATACACTGTTATCAGACACACGTGGCGAGCTACTCGTTCGGTTATCCGGCGGTATGAC (dsDNA)  Kd (PHO4; MITOMI; double-stranded DNA, one strand shown; not purified): 91 ± 2 nM
TTTGCGTGGGCTGTGGTGCTTT (ssDNA)  Kd (traI 309-858 K331A (Escherichia coli, UniProt P14565); fluorescence titration; single-stranded DNA): 18.7 ± 4.2 nM
CTTGACCAATGC (dsDNA)  Kd (BCL11A 737-835 (Homo sapiens, UniProt Q9H165); ITC; double-stranded DNA, one strand shown): 19 ± 4 nM
CAATACACTGTTATCAGACTCACGTGTCGAGCTACTCGTTCGGTTATCCGGCGGTATGAC (dsDNA)  Kd (PHO4; MITOMI; double-stranded DNA, one strand shown; not purified): 336 ± 8 nM
TTGACAAAATTTGAAAGTTGGAAAAATTTTCCAATAAATAGAGGTAGGAATAAAATGGCAA (dsDNA)  Kd (ulaR full length assumed; BLI; double-stranded DNA, one strand shown): 188 nM
CTGAAGGGGGGGCTATAAAAGGGGGTGGGGGCTCCTCAAGTCAATCGGTCC (dsDNA; 5'-amino-C6 primer)  Kd (SUA7 full length assumed; array; double-stranded DNA, one strand shown; TFIIB alone): 2.72 ± 1.02 nM
ACAUUCAUG (ssRNA)  Kd (U2AF2; sequencing of bound RNA; RNA; motif only): 14000 nM
TTCTGATCACCGACATGAAAGCTAACAGGAACGTTAAGTGCCTTAGCTCCGGCTACCGTGC (dsDNA)  Kd (ulaR full length assumed; BLI; double-stranded DNA, one strand shown): 12100 nM
CUGCAAUUUUUUUUUUUUUAUUUUUCAUUUCCAGUA (ssRNA)  Kd (U2AF2; ITC; RNA): 291 ± 110 nM
CAATACACTGTTATCTGACACACGTGTCGAGCTACTCGTTCGGTTATCCGGCGGTATGAC (dsDNA)  Kd (CBF1; MITOMI; double-stranded DNA, one strand shown; not purified): 212 ± 13 nM
GCAGUAGGGUGAGGGUGUUGGCAGGGAGCGCCCUCCCCCAUAGUGU (RNA; multiple G-quadruplex hairpins)  Kd (PARP1 1-1014 (Homo sapiens, UniProt P09874); fluorescence polarization; folded RNA; Hill coefficient 0.50): 28.6 ± 4.7 nM
CAATACACTGTTATCACACACACGTGTCGAGCTACTCGTTCGGTTATCCGGCGGTATGAC (dsDNA)  Kd (PHO4; MITOMI; double-stranded DNA, one strand shown; not purified): 152 ± 3 nM
ACAGGGGTGTGGGGACAGGGGTGTGGGG (G-quadruplex DNA (Homo sapiens); intramolecular G4)  Kd (IGF2 fragment (Homo sapiens); SPR; folded DNA; added: IGF-2 1-100 pM): 2 nM
CAATACACTGTTATCAGAAACACGTGTCGAGCTACTCGTTCGGTTATCCGGCGGTATGAC (dsDNA)  Kd (CBF1; MITOMI; double-stranded DNA, one strand shown; not purified): 110 ± 5 nM
AAUUUGUUU (ssRNA)  Kd (U2AF2; sequencing of bound RNA; RNA; motif only): 4020 nM
CGATCATGGAGCCACGAGCTCCCGTTACAG / CTGTAACGGGAGCTAGTGGCTCCATGATCG (dsDNA; blunt, 8-oxoG:2'-fluoro-arabino-A pair)  Kd (T1, MUTYH 1-535 (Homo sapiens); EMSA): 0.2 ± 0.1 nM
AGCGTCACAGACATGAAATTGGTAAGACCAATTGACTTCGGCAAGTGGCTTAAGACAGGAA (dsDNA)  Kd (nac full length assumed; BLI; double-stranded DNA, one strand shown): 4820 nM
CGCGACAACGTGAGAACGTGATAACGTGCCAACGTGCGAACGTGCTAACGTGGCACTCCGGCGGTATGAC (dsDNA)  Kd (CBF1 full length assumed (Saccharomyces cerevisiae, UniProt P17106); MITOMI; double-stranded DNA, one strand shown; not purified): 110 ± 10 nM
ATGGCGGGCTATGATCCTAT (dsDNA; blunt, N2-nBu-dG at position 7)  Kd (SUB1 full length assumed (Homo sapiens, UniProt P53999); fluorescence anisotropy; double-stranded DNA, one strand shown): 1.3 ± 0.5 nM
GGUGCCUCCAUCACCUGGUCUUUGUAGACCACCUGAUGGAGGCACCC (RNA; hairpin with terminal loop)  Kd (GATA1 200-319 (Homo sapiens, UniProt P15976); fluorescence anisotropy; folded RNA): 62 ± 15 nM
GGAACGAUACAGAGAAGAUUAG (ssRNA)  Kd (SART3 697-786 (Homo sapiens, UniProt Q15020); ITC; RNA): 940 ± 160 nM
CTCAGGAATTCCCATAAAGTAATGTGGAGCTCAGTTCAAGTCAATCGGTCC (dsDNA; blunt; 5'-amino-C6 primer)  Kd (SPT15 full length assumed; EMSA; double-stranded DNA, one strand shown): 25.2 ± 2.6 nM
RNA 1 GCGGUGUAUAGCCUAAUCUUUACCGC / RNA 2 GCGGUAAAGAUUAGGCUAUACACCGC (dsRNA)  Kd (MECP2; fluorescence polarization; double-stranded RNA; Hill coefficient 0.74): 51.9 ± 9.7 nM
AGCGTCACAGACATGAAGTTGGTCAGACCAGATGACCTCGGCAAGTGGCTTAAGACAGGAA (dsDNA)  Kd (pdhR full length assumed (Escherichia coli, UniProt P0ACL9); BLI; double-stranded DNA, one strand shown): 19.3 nM
GAUUUGUCU (ssRNA)  Kd (U2AF2; sequencing of bound RNA; RNA; motif only): 10600 nM
GGGAGCAGGAGAGAGGUCAGAUGAACAAUAAAAAUUGUGCAAGCCUUAGGCUCCCUAUGCGUGCUAGUGUGA (ssRNA; 2'-fluoro pyrimidines)  relative binding (TGM2; SPR; RNA; added: MgCl2 5 mM; higher = more binding): -13.4 RU
DNA 1 GATTTAATATTAACTTATATATGTAAACTTATTTATCAATTCAATCGGTCC / DNA 2 GGACCGATTGACTTGATAAATAAGTTTACATATATAAGTTAATATTAAATC (dsDNA; 5'-amino-C6 primer)  Kd (SPT15 full length assumed; array; double-stranded DNA; TBP alone): 10.8 ± 1.9 nM
GGTAACTTAGCGTCTCGTTGTGATTAAGTTTGACGAGGAATGGAATGCGATGCGCATAACG (dsDNA)  Kd (nac full length assumed; BLI; double-stranded DNA, one strand shown): 7430 nM
CGCGCAAGGACA (ssRNA; single strand, N6-methyladenosine at A10)  Kd (FTO (Homo sapiens, UniProt Q9C0B1); FRET titration; RNA; added: ascorbic acid 2 mM, alpha-ketoglutarate 300 µM, NiSO4): 3.8 ± 0.7 nM
CTCAGGAATTCCTATACAGTAATGTGGAGCTCAGTTCAAGTCAATCGGTCC (dsDNA; 5'-amino-C6 primer)  Kd (SUA7 full length assumed; array; double-stranded DNA, one strand shown; TFIIB alone): 7.83 ± 2.18 nM
CGCGTCGACGTGTCTACGTGTGCACGTGTGGACGTGTGTACGTGTTCACGTGTTGCTCCGGCGGTATGAC (dsDNA)  Kd (PHO4 full length assumed (Saccharomyces cerevisiae, UniProt P07270); MITOMI; double-stranded DNA, one strand shown; not purified): 32 ± 3 nM
GCGGUGUAUAGCCUAAUCUUUACCGC (structured RNA)  Kd (MECP2; fluorescence polarization; folded RNA; untagged): 25.2 nM
GGGAGCAGGAGAGAGGUCAGAUGAUACGAGAGAUGUAGCCUCUUUUAUUGCGUCCUAUGCGUGCUAGUGUGA (ssRNA; 2'-fluoro pyrimidines)  relative binding (TGM2; SPR; RNA; added: MgCl2 5 mM; higher = more binding): 34.4 RU
DNA 1 GATCGATCGATCGAATTCTCGATCGATCGATCGATTCAATTCAATCGGTCC / DNA 2 GGACCGATTGACTTGAATCGATCGATCGATCGAGAATTCGATCGATCGATC (dsDNA; 5'-amino-C6 primer)  Kd (SPT15 full length assumed; array; double-stranded DNA; TBP alone): 2.18 ± 0.2 nM
CGCTTATAGAATTATATAATTATCCAATTATCGAATTATCTAATTATGCAATTATCTCCGGCGGTATGAC (dsDNA)  Kd (CIN5 full length assumed (Saccharomyces cerevisiae, UniProt P40917); MITOMI; double-stranded DNA, one strand shown; not purified): 450 ± 30 nM
GCGGATGAAGACTGGTGTCGGGGAGGGTGGGAGGGGGAGGTAGGTCGGGGTATGATCGGCCCTAAATACGAGCAAC (ssDNA; single-stranded)  Kd (Superoxide dismutase [Cu-Zn] 1-154 (Botrytis cinerea, UniProt A0A384JBV7); ELONA; folded DNA): 1.09 ± 0.28 nM
GTTCCTGAAGGGGGGGCGGGGTGGGTATAAAAGGGTCAAGTCAATCGGTCC (dsDNA; 5'-amino-C6 primer)  Kd (T2, TOA1/TOA2 1-286; 1-122 (Saccharomyces cerevisiae); array; double-stranded DNA, one strand shown; TFIIA alone): 100 ± 39.2 nM
TGGATATCTAGGGGCGCTATGATATCT (dsDNA)  Kd (DNMT3A fragment (Homo sapiens); fluorescence polarization; double-stranded DNA, one strand shown): 1000 ± 100 nM

For quick reference, copied from above:
GGAACGAUACAGAGAAGAUUAG (ssRNA)  Kd (SART3 697-786 (Homo sapiens, UniProt Q15020); ITC; RNA): 940 ± 160 nM
GCAGCCCTGGTTAAAAACAAGGTTTATAAATATTGGTTTAAAAGCAGGTTAAAAGACAGGTTAGCGGTGG (ssDNA)  Kd (trfA 98-382 G254D/S267L/R347E (Escherichia coli, UniProt P07676); SPR; single-stranded DNA): 77 nM
TTCTGATCACCGACATGAAAGCTAACAGGAACGTTAAGTGCCTTAGCTCCGGCTACCGTGC (dsDNA)  Kd (ulaR full length assumed; BLI; double-stranded DNA, one strand shown): 12100 nM
TGGATATCTAGGGGCGCTATGATATCT (dsDNA)  Kd (DNMT3A fragment (Homo sapiens); fluorescence polarization; double-stranded DNA, one strand shown): 1000 ± 100 nM
